# Published values pooled from the literature.
# Protocols differ between the studies behind these lines. “And” joins repeats or separate records; there may be more than shown. Numbers after ± are the reported error.
# Organism: Leishmania infantum
Compound,assay,system,conditions,scale,quantity,result
O=[N+]([O-])/C=C/c1ccc(Br)o1,motility arrest,promastigotes,"72 h, 26 °C",,minimal parasiticidal concentration,2.3 ± 0.5 µM
CC(C)=CCCC1=CCC2=C(C1)C(=O)c1ccccc1C2=O,parasite growth,,"72 h, promastigote",,EC50,18.2 µM
COC(=O)C1C(c2nc3ncccc3[nH]2)=Cc2cc3c(cc2C1c1cc(OC)c(OC)c(OC)c1)OCO3 (stereo not shown),parasite growth,,promastigote,,EC50,47 µM
CCOC(=O)c1c(C#N)c(-c2cn(C)c3cccc(OCc4ccccc4)c23)n(NC(=O)OC(C)(C)C)c1C,parasite growth,,"20 µM, 72 h, promastigote",,inhibition,35.6%
CCOC(=O)c1cn(CC(c2c[nH]c3cc(Br)ccc23)c2c[nH]c3cc(Br)ccc23)c(C)c1C(=O)OC,,"THP-1, MHOM/TN/80/IPT1",72 h,reference: CC50 over IC50,selectivity index,18.8
CCOC(=O)c1c(C#N)c(-c2c[nH]c3c(C)cccc23)n(NC(=O)OC(C)(C)C)c1C,,MHOM/TN/80/IPT1 promastigotes,,reference: CC50 THP-1 over IC50 promastigotes,selectivity ratio,3.2
COC(=O)C1C(C=NO)=Cc2cc3c(cc2C1c1cc(OC)c(OC)c(OC)c1)OCO3 (stereo not shown),parasite growth,,promastigote,,EC50,61.3 µM
CCOC(=O)c1c(C#N)c(-c2c[nH]c3ccc(C)cc23)n(NC(=O)OC(C)(C)C)c1C,parasite growth,,"20 µM, 72 h, promastigote",,inhibition,-4.1%
CC1(C)NC(N)=Nc2nc3cc(Cl)c(Cl)cc3n21,parasite growth,,"72 h, promastigote",,EC50,> 20 µM
CCOC1=CC(=O)c2cc3c(cc2C1=O)CCCC3(C)C,parasite growth,,"72 h, promastigote",,EC50,16.1 µM
COc1cc(C2c3cc4c(cc3C=C(C=O)C2C(=O)OCC=Cc2ccccc2)OCO4)cc(OC)c1OC (stereo not shown),parasite growth,,promastigote,,EC50,9.3 µM
CNCCNC(=O)CN1C(=O)Cc2c([nH]c3ccc(Br)cc23)-c2ccc(Cl)cc21,,intracellular amastigotes,,reference: macrophage CC50 over amastigote EC50,selectivity ratio,1
COC(=O)C1C(C=NN=CC2=Cc3cc4c(cc3C(c3cc(OC)c(OC)c(OC)c3)C2C(=O)OC)OCO4)=Cc2cc3c(cc2C1c1cc(OC)c(OC)c(OC)c1)OCO3 (stereo not shown),parasite growth,,promastigote,,EC50,> 100 µM
Cc1ccc(N2Cc3cc(NC(=O)N4CCN(c5ccc(F)cc5)CC4)ccc3C2=O)cc1,"parasite growth, imaging",,"intracellular, amastigote",,IC50,32.5 µM
NNc1nnc(Cl)c2ccccc12,"parasite growth, MTT",,"25 µM, promastigote",,inhibition,18.6%
Cc1ccc(N2Cc3cc(NC(=O)N4CCN(c5cccc(C(F)(F)F)c5)CC4)ccc3C2=O)cc1,"parasite growth, Giemsa stain","primary peritoneal mouse macrophages, MHOM/MA(BE)/67 amastigotes",5 d,,IC50,> 64 µM
CC1(C)CCCc2cc3c(cc21)C(=O)C=CC3=O,,promastigotes,,reference: HepG2 CC50 over promastigote EC50,selectivity index,11.2
CCCCCc1cn(CCCCCCCCCCCOP(=O)([O-])OCC[N+](C)(C)C)nn1,PI staining flow cytometry,promastigotes,concentration not given,,activity,inactive
COc1cc(C2c3cc4c(cc3C(C(C)C)C3COC(=O)C23)OCO4)cc(OC)c1OC (stereo not shown),parasite growth,,promastigote,,EC50,23.2 µM
N=C(N)Nc1nc2cc(C(F)(F)F)ccc2[nH]1,parasite growth,,"72 h, promastigote",,EC50,> 20 µM
CCOC(=O)c1c(C(=O)OC)cn(CC(c2cn(C)c3ccccc23)c2cn(C)c3ccccc23)c1C,,"THP-1, MHOM/TN/80/IPT1",72 h,reference: CC50 over IC50,selectivity index,> 55
CC(=O)Oc1ccc(OC(C)=O)c2c1CC1=C(C2)C(C)(C)CCC1,,promastigotes,,reference: HepG2 CC50 over promastigote EC50,selectivity index,2.3
COC(=O)C1C(c2nc3cc(OC)ccc3[nH]2)=Cc2cc3c(cc2C1c1cc(OC)c(OC)c(OC)c1)OCO3 (stereo not shown),parasite growth,mouse Splenocyte,"48 h, intracellular, amastigote",,EC50,7.3 µM
CCOC(=O)c1c(C#N)c(-c2c[nH]c3ccc(Br)cc23)n(NC(=O)OC(C)(C)C)c1C,parasite growth,,"20 µM, 72 h, promastigote",,inhibition,-75.7%
COC1=CC(=O)c2cc3c(cc2C1=O)CCCC3(C)C,,promastigotes,,reference: HepG2 CC50 over promastigote EC50,selectivity index,3.9
O=C(Nc1ccc2c(c1)CN(c1ccc(Cl)cc1)C2=O)N1CCN(c2ccc(F)cc2)CC1,"parasite growth, Giemsa stain","primary peritoneal mouse macrophages, MHOM/MA(BE)/67 amastigotes",5 d,,IC50,> 64 µM
C/C(=C\c1ccco1)[N+](=O)[O-],motility arrest,promastigotes,"72 h, 26 °C",,minimal parasiticidal concentration,8.3 ± 0.5 µM
CCOC(=O)Nn1c(C)c(C(=O)OCC)c(C#N)c1-c1c[nH]c2ccccc12,parasite growth,,"20 µM, 72 h, promastigote",,inhibition,-91.5%
COc1cc(COC(=O)C2C(C=O)=Cc3cc4c(cc3C2c2cc(OC)c(OC)c(OC)c2)OCO4)cc(OC)c1OC (stereo not shown),parasite growth,,promastigote,,EC50,14.5 µM
CC(C)=CCCC1=CCC2C(=O)c3ccccc3C(=O)C2C1 (stereo not shown),,"intracellular amastigotes, ex vivo mouse splenic explants",72 h,,EC50,> 100 µM
CCOC(=O)c1c(C#N)c(-c2c[nH]c3cccc(OCc4ccccc4)c23)n(NC(=O)OC(C)(C)C)c1C,,MHOM/TN/80/IPT1 promastigotes,,reference: CC50 THP-1 over IC50 promastigotes,selectivity ratio,4.5 and 5 and ~5

# For quick reference, copied from above:
Compound,assay,system,conditions,scale,quantity,result
NNc1nnc(Cl)c2ccccc12,"parasite growth, MTT",,"25 µM, promastigote",,inhibition,18.6%
Cc1ccc(N2Cc3cc(NC(=O)N4CCN(c5cccc(C(F)(F)F)c5)CC4)ccc3C2=O)cc1,"parasite growth, Giemsa stain","primary peritoneal mouse macrophages, MHOM/MA(BE)/67 amastigotes",5 d,,IC50,> 64 µM
CC1(C)CCCc2cc3c(cc21)C(=O)C=CC3=O,,promastigotes,,reference: HepG2 CC50 over promastigote EC50,selectivity index,11.2
CCCCCc1cn(CCCCCCCCCCCOP(=O)([O-])OCC[N+](C)(C)C)nn1,PI staining flow cytometry,promastigotes,concentration not given,,activity,inactive
